Assay results of several laboratories.
Each line is one published result; not all experiments were run side by side. Values joined by “and” are separate records of one study, mostly repeats; a detail may differ. Numbers after ± are the reported error.

SMILES	test	system	conditions	scale	endpoint	value
OC(CCN1CCCCC1)(c1ccccc1)C1CC2C=CC1C2 (stereo not drawn)	resting-state EEG	healthy elderly humans	oral, 4 mg, eyes closed, LS mean	reference: baseline	change, EEG Alpha power, in O1-Pz	-25.8%
CCN1/C(=C/C(C)=O)Sc2ccc(F)cc21	von Frey test	mouse, burn injury pain model, contralateral paw	intraperitoneal, 10 mg/kg	–	paw withdrawal threshold	no effect
NCC(=O)Nc1cncc(-c2nn3c(=O)cc(N4CCNCC4)nc3s2)c1	ADP-induced platelet aggregation, light transmission aggregometry	stable CAD patients on aspirin	subcutaneous, 0.075 mg/kg, 30 min post-dose, together with: ADP 20 µM	reference: placebo	inhibition of platelet aggregation	77.9%
O=C(O)C1=CC(=C(c2ccc(O)c(C(=O)O)c2)c2ccc(O)c(C(=O)O)c2)C=CC1=O	flow cytometry	C57BL/6J mouse MC-38 tumour, tumour-infiltrating CD8+ T cells	peritumoral, dose not given, 2 cycles	reference: vehicle	SCA-1 expression	no effect
c1ccc(-c2n[nH]cc2-c2ccnc3ccccc23)nc1	kinase binding, competitor, MIB/MS competition, item: ENV7	Candida albicans cell lysate	10 µM	reference: DMSO	log2 fold change	0.0285
CC#Cc1cncc(-c2ccc3c(c2)[C@@]2(N=C(C)C(N)=N2)[C@]2(CC[C@H](OC)CC2)C3)c1	item: Aβ40	beagle dogs, plasma	oral, 0.48, 3.4 or 24 µmol/kg daily, 2 weeks, 4 h post-dose	–	reduction	> 50%
Cc1noc(NS(=O)(=O)c2ccc(N=NN(C)O)cc2)c1C	carrageenan-induced paw edema	Wistar rat	oral, 100 mg/kg, 0 h (baseline), together with: carrageenan 1% subplantar	higher = more edema	paw edema volume	3.63 ± 0.12 a.u.
CC(C)C[C@H](NC(=O)[C@@H](Cc1c[nH]c2ccccc12)NC(=O)[C@H](Cc1ccc(O)cc1)NC(=O)[C@H](CO)NC(=O)[C@H](Cc1c[nH]c2ccccc12)NC(=O)[C@H](Cc1c[nH]cn1)NC(=O)[C@@H]1CCC(=O)N1)C(=O)N[C@@H](CCCNC(=N)N)C(=O)N1CCC[C@H]1C(=O)NCC(N)=O	Tanner staging	Chinese girls, central precocious puberty	intramuscular, 22.5 mg day 1, month 6, month 6	reference: baseline	stable pubic hair stage	91.9%
Cc1noc(C)c1-c1cc(C(O)(c2ccccn2)c2ccccn2)c2nc(C3CC3)[nH]c2c1	item: CCR2 expression	human, peripheral blood	3 mg, day 1, 1599 study	–	maximum inhibition	32.1%
COc1cc(/C=C/C(=O)N2CCC=CC2=O)cc(OC)c1OC	quantitative RT-PCR, item: cyclin D1, normalised to beta-actin	nude mouse, MDA-MB-468 xenograft, tumour	15 mg/kg, 21 days, unit not given	reference: DMSO	mRNA level	0.794
CC#CC(=O)N[C@H]1CCCN(c2c(F)cc(C(N)=O)c3[nH]c(C)c(C)c23)C1	item: IgA	human	10 mg once daily, day 21	reference: baseline	serum immunoglobulin	-0.3 % change
C[C@@H](O)CCOC(=O)C[C@@H](C)O	item: C16 acylcarnitine	human, plasma	60 min, log2-transformed values	–	metabolite level	-3.43 ± 0.32 µmol/L
COc1ncnn2ccc(-c3cnc4nc(C)n(Cc5nnc([C@@H](C)F)o5)c4c3)c12	–	Homo sapiens, relapsed or refractory AML or MDS	dose not given, all patients	–	marrow complete response as best response	0%
C=CCn1c(=O)c2cnc(Nc3ccc(N4CCN(C)CC4)cc3)nc2n1-c1ccc2c(n1)[C@@](O)(CC)CC2	–	SW1463 xenograft, NCG mice	oral, 60 mg/kg days 0-11 then 80 mg/kg days 11-21, day 21, once daily	–	tumour volume difference	994 ± 49 mm3
COc1cc2cc(-c3ccc(CC(=O)Nc4cc(C(C)(C)C(F)(F)F)no4)cn3)cnc2cc1OC	RECIST v1.1	human RET-altered solid tumours	11 50 mg tablets, phase I	–	best overall response PD	11%
COc1ccccc1[C@H](Cn1c(=O)n(C(C)(C)C(=O)O)c(=O)c2c(C)c(-c3ncco3)sc21)OC1CCOCC1	–	human	200 mg, post-treatment	–	serum leptin	4 ± 2.89 ng/mL
CCCN(O)N=Nc1ccc(S(=O)(=O)Nc2nccs2)cc1	carrageenan-induced paw edema	Wistar rat	oral, 100 mg/kg, 0 h (baseline), together with: carrageenan 1% subplantar	higher = more edema	paw edema volume	3.6 ± 0.8 a.u.
N#Cc1ccc2c(c1)[C@H]1CCCN(C(=O)c3ccc4[nH]cnc4c3)[C@H]1C2	–	human clinical trial	oral, 240 mg once daily, 28 d, meal tolerance test	–	2 h postprandial glucose change	-2.5 mg/dL
Cc1cn(-c2ccc3n(c2=O)CCN([C@@H](C)[C@@H]2CC[C@H](c4cc(F)c(Cl)cc4C(F)(F)F)O2)C3=O)cn1	–	human, CSF	360 mg once daily, 14 days, multiple dose, single LP	reference: placebo	CSF Aβ40 change	-49.9%
O=S(=O)(Nc1nccs1)c1ccc(N=NN(O)c2ccccc2)cc1	carrageenan-induced paw edema	Wistar rat	oral, 100 mg/kg, 0 h (baseline), together with: carrageenan 1% subplantar	higher = more edema	paw edema volume	3.72 ± 0.71 a.u.

SMILES	test	system	conditions	scale	endpoint	value
COc1ccc(-c2cncc(N[C@@H](C)c3cccc(NC(=O)c4cncc(C)c4)c3)n2)cc1OC	item: rno-miR-362-3p	rat SU5416/hypoxia model, lung	dose not given	reference: SU5416/hypoxia vehicle	fold change	0.619
O=C(OC(C(F)(F)F)C(F)(F)F)N1CCN(Cc2cccc(Oc3ccccc3)c2)CC1	PET blocking study	rhesus monkey, brain CB	0.1 mg/kg, compound pretreatment, together with: [18F]T-401 tracer	–	k4	0.145 min⁻¹
COc1cc(F)c([C@@H]2CNC(=O)[C@H]2NC(=O)Nc2ccccc2)c(F)c1	terminal haemodynamics	rat, permanent coronary occlusion MI	1 mg/kg, 1008 h, 6 weeks post-MI	–	left ventricular end-diastolic pressure	14 ± 7 mmHg
CC(=O)Oc1cc2c(s1)CCN(C(C(=O)C1CC1)c1ccccc1F)C2 (stereo not drawn)	platelet aggregation, light transmittance aggregometry	human, platelet-rich plasma	30 min, IPA above 90 %, together with: TRAP 15 µM	reference: patients	patients with IPA above threshold	0%
O=C(O)CNC(=O)Cc1ccccc1	–	ventricular cardiomyocytes, C57BL/6 mouse	dose not given, 0.104 s	–	sarcomere length	1.72 µm
Cc1cccc(N(O)N=Nc2ccc(S(=O)(=O)Nc3onc(C)c3C)cc2)c1	carrageenan-induced paw edema	Wistar rat	oral, 100 mg/kg, 0 h (baseline), together with: carrageenan 1% subplantar	higher = more edema	paw edema volume	3.31 ± 0.23 a.u.
Cc1n[nH]c2ccc(-c3cc(OC[C@@H](N)Cc4ccccc4)cnc3-c3ccoc3)cc12	kinase binding, competitor, MIB/MS competition, item: SCH9	Candida albicans cell lysate	100 nM	reference: DMSO	log2 fold change	-0.2
COc1nc(NCc2cn(-c3ccc(NC(=O)c4ccccc4)cc3)nn2)nc(OC)n1	cell viability, MTT	normal colonocytes, rat	72 h	–	IC50	0.0584 ± 0.00822 µM
Cc1ccc(C(=O)OCc2ccc([C@@H](CN)C(=O)Nc3ccc4cnccc4c3)cc2)c(C)c1	tonometry	NZW rabbit, magnetic bead-induced ocular hypertension	ocular, 0.02%, 8 h	–	IOP	35.7 mmHg
N#Cc1ccc2c(-c3ccncc3)c(-c3ccc(F)cc3)nn2c1	kinase binding, competitor, MIB/MS competition, item: RCK2	Candida albicans cell lysate	10 µM	reference: DMSO	log2 fold change	0.248
CC(C)NCC(O)c1ccc(O)c(O)c1 (stereo not drawn)	–	ventricular cardiomyocytes, C57BL/6 mouse	dose not given, 0.844 s	–	sarcomere length	1.5 µm
Cc1cc(F)cc2c(CCC(=O)N[C@@H]3C(=O)NC[C@H]3O)c(-c3ccc(F)cc3)[nH]c12	–	mice, APOL1 G2, single copy	oral, 30 mg/kg twice daily, day 6, together with: IFNγ plasmid injection	–	UACR	30400 µg/mg and 2140 µg/mg and 8740 µg/mg and 2810 µg/mg and 1180 µg/mg and 1440 µg/mg
Cc1cc(NS(=O)(=O)c2ccc(N=NN(C)O)cc2)no1	carrageenan-induced paw edema	Wistar rat	oral, 100 mg/kg, 3 h after carrageenan, together with: carrageenan 1% subplantar	higher = more edema	paw edema volume	4.41 ± 0.83 a.u.
Cc1ccc(NC(=O)c2ccnc(C(F)(F)F)c2)cc1-c1cc(OCCO)nc(N2CCOCC2)c1	–	MAPK-altered advanced solid tumour patients	dose not given, single-agent dose escalation	–	complete response	0%
COc1cc(Nc2ncc3c(n2)-c2ccc(Cl)cc2C(c2c(F)cccc2OC)=NC3)ccc1C(=O)O	–	mouse, NB-1643 neuroblastoma xenograft	oral, 2.6 mg/kg, day 14	reference: vehicle	relative tumour volume T/C	3.08
C=CC[C@@H]1c2ccc(OC)c(OC)c2CN2CCc3cc4c(cc3[C@H]12)OCO4	–	P2rx7+/+ mouse, S. aureus wound infection	dose not given, day 0	reference: day 0	relative wound size	1
Cc1noc(NS(=O)(=O)c2ccc(N=NN(O)c3ccccc3)cc2)c1C	carrageenan-induced paw edema	Wistar rat	oral, 100 mg/kg, 2 h after carrageenan, together with: carrageenan 1% subplantar	higher = more edema	paw edema volume	5.7 ± 0.81 a.u.
CN(C)C(=O)c1cc2cnc(Nc3ccc(N4CCNCC4)cn3)nc2n1C1CCCC1	RNA-seq GSEA, item: HALLMARK_ALLOGRAFT_REJECTION	MB002 tumour	concentration not given, in vivo	reference: vehicle, direction not given	GSEA enrichment score	-0.247
Cn1cc(Nc2nccc(-c3ccc4c(c3)CN(C3COC3)CC[C@H]4NC(=O)c3cn(C(C)(C)C)nn3)n2)cn1	item: B Cell Receptor Signaling	splenic B cells, mouse	in vivo, 30 mg/kg, IgD-activated B cells	reference: vehicle, positive = activation	pathway activation z-score	2.08

A few entries again:
SMILES	test	system	conditions	scale	endpoint	value
CC(=O)Oc1cc2c(s1)CCN(C(C(=O)C1CC1)c1ccccc1F)C2 (stereo not drawn)	platelet aggregation, light transmittance aggregometry	human, platelet-rich plasma	30 min, IPA above 90 %, together with: TRAP 15 µM	reference: patients	patients with IPA above threshold	0%
Cc1cc(NS(=O)(=O)c2ccc(N=NN(C)O)cc2)no1	carrageenan-induced paw edema	Wistar rat	oral, 100 mg/kg, 3 h after carrageenan, together with: carrageenan 1% subplantar	higher = more edema	paw edema volume	4.41 ± 0.83 a.u.
C=CC[C@@H]1c2ccc(OC)c(OC)c2CN2CCc3cc4c(cc3[C@H]12)OCO4	–	P2rx7+/+ mouse, S. aureus wound infection	dose not given, day 0	reference: day 0	relative wound size	1
C=CCn1c(=O)c2cnc(Nc3ccc(N4CCN(C)CC4)cc3)nc2n1-c1ccc2c(n1)[C@@](O)(CC)CC2	–	SW1463 xenograft, NCG mice	oral, 60 mg/kg days 0-11 then 80 mg/kg days 11-21, day 21, once daily	–	tumour volume difference	994 ± 49 mm3
N#Cc1ccc2c(-c3ccncc3)c(-c3ccc(F)cc3)nn2c1	kinase binding, competitor, MIB/MS competition, item: RCK2	Candida albicans cell lysate	10 µM	reference: DMSO	log2 fold change	0.248
